Results gathered from unrelated publications.
Numbered parts are unrelated; each lists some results of a single study.
UniProt P09619, sequence (whole entry, looked up): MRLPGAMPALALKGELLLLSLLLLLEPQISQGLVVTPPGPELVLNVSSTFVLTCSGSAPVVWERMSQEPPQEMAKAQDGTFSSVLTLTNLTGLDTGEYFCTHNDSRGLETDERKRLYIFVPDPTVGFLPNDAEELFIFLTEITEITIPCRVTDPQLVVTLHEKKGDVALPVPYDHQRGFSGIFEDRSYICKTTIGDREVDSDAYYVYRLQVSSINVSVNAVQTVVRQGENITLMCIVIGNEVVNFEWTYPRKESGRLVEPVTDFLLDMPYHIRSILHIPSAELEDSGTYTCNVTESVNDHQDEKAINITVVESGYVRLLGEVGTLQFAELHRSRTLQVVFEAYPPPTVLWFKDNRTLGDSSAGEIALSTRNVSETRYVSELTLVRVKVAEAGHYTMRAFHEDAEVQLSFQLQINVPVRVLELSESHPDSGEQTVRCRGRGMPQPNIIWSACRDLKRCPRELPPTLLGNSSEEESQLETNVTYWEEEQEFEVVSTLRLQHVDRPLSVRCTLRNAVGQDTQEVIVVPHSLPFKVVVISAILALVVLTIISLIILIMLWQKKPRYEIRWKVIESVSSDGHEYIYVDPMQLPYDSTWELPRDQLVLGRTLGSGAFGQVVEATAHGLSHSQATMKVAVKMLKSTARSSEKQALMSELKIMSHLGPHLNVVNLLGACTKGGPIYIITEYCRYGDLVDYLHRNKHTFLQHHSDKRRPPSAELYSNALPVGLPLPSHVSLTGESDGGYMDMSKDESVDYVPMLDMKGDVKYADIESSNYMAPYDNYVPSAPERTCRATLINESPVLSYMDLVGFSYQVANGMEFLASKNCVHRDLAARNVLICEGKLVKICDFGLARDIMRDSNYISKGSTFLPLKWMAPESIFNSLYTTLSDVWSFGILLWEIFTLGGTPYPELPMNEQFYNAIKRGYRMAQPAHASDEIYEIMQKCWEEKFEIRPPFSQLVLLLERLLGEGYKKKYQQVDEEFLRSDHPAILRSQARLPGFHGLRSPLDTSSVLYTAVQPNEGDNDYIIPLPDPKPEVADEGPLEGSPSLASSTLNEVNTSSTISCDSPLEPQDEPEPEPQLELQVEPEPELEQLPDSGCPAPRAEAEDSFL

Sample 1
Target: Beta-1 adrenergic receptor (ADRB1, Homo sapiens, UniProt P08588)
UniProt P08588, sequence (whole entry, looked up): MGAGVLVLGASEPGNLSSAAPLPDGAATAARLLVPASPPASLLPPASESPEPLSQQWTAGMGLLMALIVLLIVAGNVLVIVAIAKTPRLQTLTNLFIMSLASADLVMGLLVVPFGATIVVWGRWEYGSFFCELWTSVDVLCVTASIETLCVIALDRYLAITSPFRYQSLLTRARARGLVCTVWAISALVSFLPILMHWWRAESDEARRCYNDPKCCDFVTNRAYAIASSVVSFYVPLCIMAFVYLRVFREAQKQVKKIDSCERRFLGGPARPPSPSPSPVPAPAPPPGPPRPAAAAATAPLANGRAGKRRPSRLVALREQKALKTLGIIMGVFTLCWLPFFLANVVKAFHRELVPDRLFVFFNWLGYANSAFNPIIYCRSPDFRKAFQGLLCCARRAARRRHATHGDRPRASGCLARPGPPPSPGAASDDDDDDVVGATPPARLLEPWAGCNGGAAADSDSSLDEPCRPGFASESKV
Action: antagonist
SMILES | IC50
CCOc1ccccc1N1CCN([S+](=O)([O-])c2cc(Cl)ccc2Cl)CC1 | ≥ 100 µM
Cc1cc(C)n(-c2ccc(=O)n(CC3CN(c4nc5c(cc4C#N)CCC5)C3)n2)n1 | ≥ 100 µM
O=C(Nc1cnc2ccccc2c1)c1cn(-c2ccccc2C(F)(F)F)nn1 | ≥ 100 µM
N#Cc1ccc(C(=O)Nc2ccc([C@@H](O)[C@H]3COCC(=O)N3CCCc3ccccc3)cc2)cc1 | ≥ 100 µM
Cc1cccc(NC(=O)c2sc3nc(-c4cc5ccc(O)cc5oc4=O)[nH]c(=O)c3c2C)c1 | ≥ 100 µM
c1ccc(OCC2CN(Cc3ccc4[nH]ccc4c3)CC23CN(c2ccccc2)C3)cc1 (stereo not drawn) | ≥ 100 µM
Cc1cc(=O)oc2cc(NC(=O)[C@H](CCC(=O)O)NC(=O)[C@H](CC(C)C)NC(=O)[C@H](CC(C)C)NC(=O)OCc3ccccc3)ccc12 | ≥ 100 µM
COc1ccc(OC)c(-c2ncc3c(n2)OCCN(c2cccc(C(F)(F)F)c2)C3=O)c1 | ≥ 100 µM
Cc1noc2c(-c3cnn(C)c3)cc(-c3cccnc3)nc12 | ≥ 100 µM
O=C1COc2ccc(-c3ccoc3)nc2CN1 | ≥ 100 µM
COc1cc(O)ccc1OCCNCC(O)COc1cccc2[nH]c3ccccc3c12 (stereo not drawn) | ≥ 100 µM
Cn1cc(-c2cc(=O)c3ccnc(NC4CCOCC4)c3o2)cn1 | ≥ 100 µM

Sample 2
Target: Cytoplasmic tyrosine-protein kinase BMX (BMX, Homo sapiens, UniProt P51813)
UniProt P51813, sequence (whole entry, looked up): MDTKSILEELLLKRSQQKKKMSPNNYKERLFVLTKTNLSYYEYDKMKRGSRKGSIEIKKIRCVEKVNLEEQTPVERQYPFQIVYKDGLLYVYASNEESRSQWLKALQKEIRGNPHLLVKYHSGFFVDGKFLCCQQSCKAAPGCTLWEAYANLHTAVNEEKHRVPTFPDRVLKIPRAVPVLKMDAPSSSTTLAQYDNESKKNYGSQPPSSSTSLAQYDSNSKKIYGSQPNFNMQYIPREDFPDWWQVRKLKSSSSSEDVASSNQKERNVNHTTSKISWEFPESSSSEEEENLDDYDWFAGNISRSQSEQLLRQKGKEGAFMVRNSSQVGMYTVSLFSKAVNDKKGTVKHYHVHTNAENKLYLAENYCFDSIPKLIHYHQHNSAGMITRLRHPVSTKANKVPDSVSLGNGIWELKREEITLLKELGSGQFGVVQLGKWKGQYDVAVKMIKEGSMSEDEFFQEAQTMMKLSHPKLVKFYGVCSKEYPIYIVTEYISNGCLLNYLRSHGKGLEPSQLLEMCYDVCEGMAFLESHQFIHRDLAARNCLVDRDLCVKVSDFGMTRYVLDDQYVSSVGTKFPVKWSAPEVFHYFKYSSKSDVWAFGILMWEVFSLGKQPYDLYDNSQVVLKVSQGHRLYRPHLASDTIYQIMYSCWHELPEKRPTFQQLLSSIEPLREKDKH
Effect on: enzyme activity
Action: inhibitor
Tested at: 0.5 µM
Baseline: control
SMILES | remaining activity [%]
O=c1cc(N2CCOCC2)oc2c1ccc1ccccc12 | 92.7
O=C(Nc1ccc(Cl)cc1)c1ccccc1NCc1ccncc1 | 90.5
CS(=O)(=O)CCNCc1ccc(-c2ccc3ncnc(Nc4ccc(OCc5cccc(F)c5)c(Cl)c4)c3c2)o1 | 105
CC(C)[C@H](CO)Nc1nc(Nc2cccc(Cl)c2)c2ncn(C(C)C)c2n1 | 84.3
Cn1cnc2cc3c(Nc4cccc(Br)c4)ncnc3cc21 | 96.6
CCOc1cc2ncnc(Nc3cccc(Br)c3)c2cc1OCC | 95.5
O=C1NC(=O)/C(=C/c2ccc3nccnc3c2)S1 | 98.6
CCN1/C(=C/C(C)=O)Sc2ccc(OC)cc21 | 105
COc1cc2ncnc(Nc3ccc(OCc4ccccc4)cc3)c2cc1OC | 89.7
CC(=O)O/N=C1/C(c2c(O)[nH]c3cc(Br)ccc23)=Nc2ccccc21 | 67.2
COc1cc2ncnc(N3CCN(C(=O)Nc4ccc(Oc5ccccc5)cc4)CC3)c2cc1OC | 90.9
CC(C)c1nn(-c2c(Cl)cccc2Cl)c2nc(Cc3ccc(OCCO)cc3)[nH]c(=O)c12 | 104
CCC(=O)Nc1ccc2ncnc(Nc3cccc(Br)c3)c2c1 | 98.7
COc1ccc(-c2cnc3c(-c4ccsc4)cnn3c2)cc1 | 90.6
Cn1cc(/C=C2\C(=O)Nc3ccc(S(N)(=O)=O)cc32)c2ccccc21 | 77
Cc1ccc(NC(=O)c2ccc(CN3CCN(C)CC3)cc2)cc1Nc1nccc(-c2cccnc2)n1 | 99.5
COc1ccc(Cl)cc1NC(=O)Nc1cc(C)nc2ccccc12 | 101
CN(C)CCCn1cc(C2=C(c3c[nH]c4ccccc34)C(=O)NC2=O)c2ccccc21 | 101

Sample 3
Target: DNA polymerase theta, helicase domain (POLQ, Homo sapiens, UniProt O75417)
UniProt O75417, sequence (whole entry, looked up): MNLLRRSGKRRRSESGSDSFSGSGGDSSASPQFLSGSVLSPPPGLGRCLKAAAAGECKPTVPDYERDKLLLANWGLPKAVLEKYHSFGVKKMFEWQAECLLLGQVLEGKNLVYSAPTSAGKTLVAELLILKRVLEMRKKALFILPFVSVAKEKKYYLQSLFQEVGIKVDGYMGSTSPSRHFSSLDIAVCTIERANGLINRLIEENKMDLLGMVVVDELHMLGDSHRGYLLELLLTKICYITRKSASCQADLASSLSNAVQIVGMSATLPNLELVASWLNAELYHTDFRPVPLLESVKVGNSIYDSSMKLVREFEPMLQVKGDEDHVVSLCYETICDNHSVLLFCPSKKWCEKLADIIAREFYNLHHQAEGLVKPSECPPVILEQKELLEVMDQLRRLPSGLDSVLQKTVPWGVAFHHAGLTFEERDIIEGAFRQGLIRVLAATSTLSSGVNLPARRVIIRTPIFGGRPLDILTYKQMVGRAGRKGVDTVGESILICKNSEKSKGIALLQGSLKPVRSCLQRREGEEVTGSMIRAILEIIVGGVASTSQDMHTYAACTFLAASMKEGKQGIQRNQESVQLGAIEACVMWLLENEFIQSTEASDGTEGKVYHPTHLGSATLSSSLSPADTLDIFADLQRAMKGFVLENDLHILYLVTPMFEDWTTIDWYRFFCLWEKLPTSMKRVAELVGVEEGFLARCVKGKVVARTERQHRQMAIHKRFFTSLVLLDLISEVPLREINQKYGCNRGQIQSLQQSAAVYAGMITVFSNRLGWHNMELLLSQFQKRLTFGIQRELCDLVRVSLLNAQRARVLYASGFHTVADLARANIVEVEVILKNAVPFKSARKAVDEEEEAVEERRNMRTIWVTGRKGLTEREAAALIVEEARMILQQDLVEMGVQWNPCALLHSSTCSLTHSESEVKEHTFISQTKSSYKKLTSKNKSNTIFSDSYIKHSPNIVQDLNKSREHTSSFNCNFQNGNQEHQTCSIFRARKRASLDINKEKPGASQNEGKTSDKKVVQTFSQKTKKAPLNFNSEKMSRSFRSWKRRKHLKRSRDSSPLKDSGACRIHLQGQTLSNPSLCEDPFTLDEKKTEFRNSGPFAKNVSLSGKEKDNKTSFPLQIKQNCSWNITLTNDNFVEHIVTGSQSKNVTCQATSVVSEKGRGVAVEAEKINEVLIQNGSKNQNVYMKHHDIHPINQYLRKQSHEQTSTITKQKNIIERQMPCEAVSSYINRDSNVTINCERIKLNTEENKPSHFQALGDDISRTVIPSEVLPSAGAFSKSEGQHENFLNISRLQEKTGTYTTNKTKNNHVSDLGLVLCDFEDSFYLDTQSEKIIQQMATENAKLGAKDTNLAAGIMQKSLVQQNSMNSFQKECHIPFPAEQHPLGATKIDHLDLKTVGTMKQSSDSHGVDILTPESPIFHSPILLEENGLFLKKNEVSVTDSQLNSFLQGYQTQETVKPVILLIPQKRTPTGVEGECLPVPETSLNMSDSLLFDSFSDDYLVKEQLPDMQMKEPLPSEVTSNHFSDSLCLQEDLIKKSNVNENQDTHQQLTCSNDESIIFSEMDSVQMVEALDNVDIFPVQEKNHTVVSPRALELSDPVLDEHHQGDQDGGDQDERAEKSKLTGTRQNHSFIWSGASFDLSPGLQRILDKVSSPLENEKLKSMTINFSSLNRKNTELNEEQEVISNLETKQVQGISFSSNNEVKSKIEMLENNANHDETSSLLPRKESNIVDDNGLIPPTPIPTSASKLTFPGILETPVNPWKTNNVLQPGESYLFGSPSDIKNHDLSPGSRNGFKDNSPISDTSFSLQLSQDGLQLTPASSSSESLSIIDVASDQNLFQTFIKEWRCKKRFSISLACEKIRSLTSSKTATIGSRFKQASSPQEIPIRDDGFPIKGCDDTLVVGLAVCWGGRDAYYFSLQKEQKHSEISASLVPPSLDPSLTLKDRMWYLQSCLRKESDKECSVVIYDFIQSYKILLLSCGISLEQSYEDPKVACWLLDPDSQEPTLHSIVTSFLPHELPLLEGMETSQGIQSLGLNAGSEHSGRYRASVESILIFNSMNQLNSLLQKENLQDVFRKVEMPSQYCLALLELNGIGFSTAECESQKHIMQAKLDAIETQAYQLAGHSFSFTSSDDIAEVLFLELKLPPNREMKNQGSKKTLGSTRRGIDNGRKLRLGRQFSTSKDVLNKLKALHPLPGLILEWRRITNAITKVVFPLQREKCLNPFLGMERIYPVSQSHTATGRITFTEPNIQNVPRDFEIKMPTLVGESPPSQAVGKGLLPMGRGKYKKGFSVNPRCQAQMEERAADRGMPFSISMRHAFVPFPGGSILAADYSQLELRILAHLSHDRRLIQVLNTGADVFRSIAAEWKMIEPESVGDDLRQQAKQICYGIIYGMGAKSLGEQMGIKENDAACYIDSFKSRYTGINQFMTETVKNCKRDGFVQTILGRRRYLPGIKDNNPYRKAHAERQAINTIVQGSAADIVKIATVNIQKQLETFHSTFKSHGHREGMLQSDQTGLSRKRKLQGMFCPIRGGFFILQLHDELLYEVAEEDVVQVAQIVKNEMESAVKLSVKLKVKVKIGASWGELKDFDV
Effect on: ATPase activity
Tested at: concentration not given
Notes: with minus without ssDNA
Compound | activity difference
Cc1ccc(C2C=C(c3ccccc3)N=C3N=C(NS(C)(=O)=O)NN32)cc1 (stereo not drawn) | 0.782%
COc1ccc(C(=O)Nc2noc3ccccc23)cc1 | 0.697%
O=C(Nc1noc2ccccc12)c1ccc(F)cc1 | 4.19%
CCCCCCCC/C=C\CCCCCCCC(=O)O | 1.57%
O=c1[nH]c2cc(Cl)ccc2c(O)c1-c1cccc(Oc2ccccc2)c1 | 7.05%
O=C(O)C1=CC(=C(c2ccc(O)c(C(=O)O)c2)c2ccc(O)c(C(=O)O)c2)C=CC1=O | 5.17%
Cc1ccc(-c2n[nH]c3c2C(c2ccccc2Cl)N(c2ccc(C(=O)O)cc2)C3=O)cc1 (stereo not drawn) | 8.67%
O=C(Nc1cc2cc[nH]c2cn1)c1ccccc1 | 3.95%

Sample 4
Structure (SMILES): C[C@@H]1CN(c2cc(-c3nn(C)c4ccc(OC5(C)CC5)cc34)ncn2)C[C@H](C)O1
Technique: competition with immobilised ligand
Tested at: 1 µM
target | effect on | remaining binding
PIK3C3 (Homo sapiens, UniProt Q8NEB9) | cell-free assay | 86%
STK32A (Homo sapiens, UniProt Q8WU08) | cell-free assay | 78%
DAPK3 (Homo sapiens, UniProt O43293) | cell-free assay | 89%
TNNI3K (Homo sapiens, UniProt Q59H18) | cell-free assay | 71%
LTK (Homo sapiens, UniProt P29376) | cell-free assay | 100%
FLT3 (Homo sapiens, UniProt P36888, D835Y) | cell-free assay | 100%
BLK (Homo sapiens, UniProt P51451) | cell-free assay | 95%
PDGFRB (Homo sapiens, UniProt P09619) | cell-free assay | 100%
CSNK1E (Homo sapiens, UniProt P49674) | cell-free assay | 100%
MAPKAPK5 (Homo sapiens, UniProt Q8IW41) | cell-free assay | 73%
CDK14 (Homo sapiens, UniProt O94921) | cell-free assay | 100%
SGK2 (Homo sapiens, UniProt Q9HBY8) | cell-free assay | 58%
ACVR2A (Homo sapiens, UniProt P27037) | cell-free assay | 100%
Aurora kinase B (AURKB, Homo sapiens, UniProt Q96GD4) | cell-free assay | 94%
Myosin-IIIb (MYO3B, Homo sapiens, UniProt Q8WXR4) | binding | 100%
FLT3 (Homo sapiens, UniProt P36888, ITD) | cell-free assay | 91%
CAMK2D (Homo sapiens, UniProt Q13557) | cell-free assay | 88%
KIT (Homo sapiens, UniProt P10721, D816H) | cell-free assay | 64%
EGFR (Homo sapiens, UniProt P00533, del747-752/P753S) | cell-free assay | 92%

For quick reference, copied from above (sample 4):
target | effect on | remaining binding
ACVR2A (Homo sapiens, UniProt P27037) | cell-free assay | 100%
STK32A (Homo sapiens, UniProt Q8WU08) | cell-free assay | 78%
FLT3 (Homo sapiens, UniProt P36888, D835Y) | cell-free assay | 100%
Aurora kinase B (AURKB, Homo sapiens, UniProt Q96GD4) | cell-free assay | 94%
KIT (Homo sapiens, UniProt P10721, D816H) | cell-free assay | 64%
Myosin-IIIb (MYO3B, Homo sapiens, UniProt Q8WXR4) | binding | 100%
PDGFRB (Homo sapiens, UniProt P09619) | cell-free assay | 100%
TNNI3K (Homo sapiens, UniProt Q59H18) | cell-free assay | 71%
